# Results pooled from the literature.
# Values joined by “and” are separate records of one study, mostly repeats; a detail may differ. Numbers after ± are the reported error.
Structure (SMILES),target or system,assay,system,setting,endpoint,value
Cc1cc(Oc2nc(N3CC[C@@H](c4ccncc4)C3)ncc2F)[nH]n1,Mycobacterium tuberculosis,OD,H37Rv PurF CRISPRi knockdown,"0.003906 µM, together with: anhydrotetracycline low",normalised growth,68% and 65% and 73%
CN[C@@H]1[C@H](O)[C@H](NC)[C@H]2O[C@]3(O)[C@H](O[C@@H]2[C@H]1O)O[C@H](C)C[C@H]3NC(=O)Cc1ccccn1,Mycobacteroides abscessus,microbial growth,ATCC19977,,MIC,50 µg/mL
O=C(NNc1ccc(Cl)cc1)c1nnc(CC23CC4CC(CC(C4)C2)C3)o1,Fusarium graminearum,"fungal growth, inhibitor",,,EC50,0.77 ± 0.04 µg/mL
CN[C@@H]1[C@H](O)[C@H](NC)[C@H]2O[C@]3(O)[C@H](O[C@@H]2[C@H]1O)O[C@H](C)C[C@H]3NC(=O)Cc1cscn1,Mycobacterium avium,microbial growth,ATCC25291,,MIC,25 to 50 µg/mL
Cc1ccc2nc(C)c(CC(=O)NCc3ccc(N(C)C)cc3)n2c1,Mycobacterium kansasii,microbial growth,,6 days,MIC,49.9 µM
N=C(N)NCCC[C@@H]1NC(=O)[C@H](CCCCNC(=O)CCC(NC(=S)Nc2ccc(CC3CN(CC(=O)O)CCN(CC(=O)O)CCN(CC(=O)O)CCN3CC(=O)O)cc2)C(=O)NCCCC[C@@H]2NC(=O)[C@@H](Cc3ccc(O)cc3)NC(=O)[C@H](CC(=O)O)NC(=O)CNC(=O)[C@H](CCCNC(=N)N)NC2=O)NC(=O)[C@@H](Cc2ccc(O)cc2)NC(=O)[C@H](CC(=O)O)NC(=O)CNC1=O (stereo partly shown) [scandium-44 labelled],,PET imaging ROI,"female athymic nude mice, U-87 MG xenograft, liver","intravenous, 0.5 h, together with: cRGD 50 mg/kg blocking",tissue uptake,0.65 ± 0.14 %ID/g
CC(=O)N[C@@H](CC(C)C)C(=O)N[C@H](C(=O)N[C@@H](Cc1ccccc1)C(=O)N[C@]1(C)CCCCCC/C=C/CCC[C@@](C)(C(=O)N[C@@H](C)C(=O)N[C@@H](C)C(=O)N[C@@H](C)C(=O)N[C@@H](C)C(=O)N[C@@H](C)C(=O)N[C@H](C)C(N)=O)NC(=O)[C@H](CC(C)C)NC(=O)[C@H](CCCCNC(=O)CCNC(=O)C[C@@H]2N=C(c3ccc(Cl)cc3)c3c(sc(C)c3C)-n3c(C)nnc32)NC(=O)[C@H](C)NC(=O)[C@H](Cc2c[nH]c3ccccc23)NC(=O)[C@H](Cc2ccc(O)cc2)NC(=O)[C@H](C)NC1=O)[C@@H](C)O,,equilibrium dialysis,mouse plasma,"2 µM, 6 h, 37 °C",fraction unbound,0.0271
CON(C(=O)c1cn(C)nc1C(F)F)C(C)Cc1c(Cl)cc(Cl)cc1Cl (stereo not shown),Fusarium graminearum,mycelial growth,,12 h,EC50,0.136 µg/mL
C#CCN1C(=O)C(CC#C)(C(=O)OCC)Oc2ccccc21 (stereo not shown),Fusarium graminearum,microbial growth,,50 µg/mL,inhibition,< 25%
O=C1NC2(CC2)COc2ncc(F)cc2[C@H]2COCCN2c2ccn3ncc1c3n2,,,"Sprague-Dawley rat, female, liver","oral, 5 mg/kg/day, 4 weeks, end of treatment",organ-to-body weight ratio,3.54 ± 0.195%
CN[C@@H]1[C@H](O)[C@H](NC)[C@H]2O[C@]3(O)[C@H](O[C@@H]2[C@H]1O)O[C@H](C)C[C@H]3NC(=O)Cc1ccc(F)cn1,Mycobacteroides abscessus,microbial growth,ATCC19977,,MIC,50 µg/mL
CC(C)(C)C(=O)OCOP(=O)(OCOC(=O)C(C)(C)C)C1CCCN(O)C1=O (stereo not shown),UACC-257,,,,CC50,> 100 µM
Cc1ccc2nc(C)c(C(=O)C(=O)N(C)C)n2c1,Mycobacterium avium,microbial growth,,6 days,MIC,> 128 µM
CC[C@H](C)[C@H](NC(=O)[C@H](CO)NC(=O)[C@H](Cc1ccc(O)cc1)NC(=O)[C@H](Cc1ccc(O)cc1)NC(=O)[C@H](CC(N)=O)NC(=O)CNC(=O)[C@H](CO)NC(=O)[C@H](Cc1ccc(O)cc1)NC(=O)[C@H](CO)NC(=O)[C@H](CO)NC(=O)[C@H](CC(N)=O)NC(=O)COCCOCCNC(=O)CN1CCN(CC(=O)O)CCN(CC(=O)O)CCN(CC(=O)O)CC1)C(=O)N[C@@H](CC(C)C)C(N)=O [copper-64 labelled],,dynamic PET,"tamoxifen-induced PDAC mouse model, metastases","1.4 min, CLDN4-expressing tumours",maximum metastasis uptake,27 %IA/cc
O=C(NNc1ccccc1)c1nnc(C23CC4CC(CC(C4)C2)C3)o1,Pyricularia grisea,microbial growth,,50 µg/mL,inhibition,44.3%
Cc1ccc(CNC(=O)Cc2c(C)nc3ccc(C)cn23)cc1,Mycobacterium avium,microbial growth,,6 days,MIC,> 50 µM
CN[C@@H]1[C@H](O)[C@H](NC)[C@H]2O[C@]3(O)[C@H](O[C@@H]2[C@H]1O)O[C@H](C)C[C@H]3NC(=O)Cc1cc(Cl)ccn1,Proteus vulgaris,"microbial growth, broth dilution",ATCC33420,,MIC,> 200 µg/mL
Cc1ccc2nc(C)c(C(=O)C(=O)NCc3ccccc3)n2c1,Mycobacteroides abscessus,,ATCC 19977,72 h,MIC,> 128 µM
CN[C@@H]1[C@H](O)[C@H](NC)[C@H]2O[C@]3(O)[C@H](O[C@@H]2[C@H]1O)O[C@H](C)C[C@H]3NC(=O)Cc1ccc(Cl)cn1,Mycobacterium avium,microbial growth,ATCC25291,,MIC,25 µg/mL
CC(C)CC(C(=O)N1CC2(CC1C#N)C(=O)Nc1ccccc12)N(C)C(=O)c1cc2c(F)cc(F)c(F)c2[nH]1 (stereo not shown),Human coronavirus 229E,cytopathic effect,MRC5,39 pM,inhibition,0%
Cc1ccc(CNC(=O)C(=O)c2c(C)nc3ccc(C)cn23)cc1,Mycobacterium avium,microbial growth,,6 days,MIC,> 128 µM
CC[C@H](C)[C@@H]([C@@H](CC(=O)N1CCC[C@H]1[C@H](OC)[C@@H](C)C(=O)N[C@H](C)[C@@H](O)c1ccccc1)OC)N(C)C(=O)[C@@H](NC(=O)[C@H](C(C)C)N(C)C(=O)OCc1ccc(NC(=O)[C@H](CCCNC(N)=O)NC(=O)[C@@H](NC(=O)CCCCCN2C(=O)CC(SC[C@H](NC(=O)[C@H](CC(=O)O)NC(=O)[C@H](Cc3ccc(O)cc3)NC(=O)[C@H](Cc3c[nH]c4ccccc34)NC(=O)[C@@H](N)CCCNC(=N)N)C(=O)O)C2=O)C(C)C)cc1)C(C)C (stereo partly shown),,,"C57BL/6 mouse, healthy, lung","intraperitoneal, 2.5 mg/kg, 0.167 h",concentration,not detected
